# Results pooled from the literature.
# Each line is one published result; not all experiments were run side by side. Numbers after ± are the reported error.
# GPBAR1: G-protein coupled bile acid receptor 1 (GPBAR1, Homo sapiens, UniProt Q8TDU6)
# Sequence of UniProt Q8TDU6 (whole entry, looked up): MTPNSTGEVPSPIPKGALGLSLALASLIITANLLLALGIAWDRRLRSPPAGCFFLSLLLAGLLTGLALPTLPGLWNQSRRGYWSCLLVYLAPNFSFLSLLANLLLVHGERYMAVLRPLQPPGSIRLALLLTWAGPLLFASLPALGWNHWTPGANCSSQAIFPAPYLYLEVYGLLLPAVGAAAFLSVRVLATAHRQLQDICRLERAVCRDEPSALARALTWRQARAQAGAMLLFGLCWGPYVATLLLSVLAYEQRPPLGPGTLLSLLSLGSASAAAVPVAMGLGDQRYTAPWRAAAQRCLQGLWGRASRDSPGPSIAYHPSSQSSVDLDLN
# Kir3.1/Kir3.2: Kir3.1/Kir3.2 (Homo sapiens, UniProt P48051+P48549)
# Sequence of UniProt P48051 (whole entry, looked up): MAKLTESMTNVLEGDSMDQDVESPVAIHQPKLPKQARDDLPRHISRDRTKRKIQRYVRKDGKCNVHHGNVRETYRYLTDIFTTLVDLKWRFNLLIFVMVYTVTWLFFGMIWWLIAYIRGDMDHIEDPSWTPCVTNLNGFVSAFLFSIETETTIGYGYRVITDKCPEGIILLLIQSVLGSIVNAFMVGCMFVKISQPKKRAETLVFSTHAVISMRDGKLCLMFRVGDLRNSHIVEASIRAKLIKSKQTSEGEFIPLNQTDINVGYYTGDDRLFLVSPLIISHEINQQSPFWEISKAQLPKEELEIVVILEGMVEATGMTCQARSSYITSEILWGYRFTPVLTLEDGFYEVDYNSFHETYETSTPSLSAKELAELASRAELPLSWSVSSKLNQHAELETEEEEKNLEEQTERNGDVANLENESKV
# Sequence of UniProt P48549 (whole entry, looked up): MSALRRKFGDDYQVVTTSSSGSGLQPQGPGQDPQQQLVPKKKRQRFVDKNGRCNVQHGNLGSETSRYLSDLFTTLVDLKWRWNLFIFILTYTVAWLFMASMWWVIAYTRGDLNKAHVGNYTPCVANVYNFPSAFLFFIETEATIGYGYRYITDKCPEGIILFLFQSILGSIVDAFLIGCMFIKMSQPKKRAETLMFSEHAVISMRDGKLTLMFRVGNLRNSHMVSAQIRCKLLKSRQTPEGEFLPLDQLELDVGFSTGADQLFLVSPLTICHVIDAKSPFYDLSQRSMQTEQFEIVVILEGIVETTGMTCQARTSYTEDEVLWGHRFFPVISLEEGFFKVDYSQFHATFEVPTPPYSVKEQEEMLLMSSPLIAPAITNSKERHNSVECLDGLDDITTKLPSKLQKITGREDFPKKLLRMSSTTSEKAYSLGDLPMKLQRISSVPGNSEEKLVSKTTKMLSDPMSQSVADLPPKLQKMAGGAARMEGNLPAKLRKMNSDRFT
# CXCL8: Interleukin-8 (CXCL8, Homo sapiens, UniProt P10145)
# Sequence of UniProt P10145 (whole entry, looked up): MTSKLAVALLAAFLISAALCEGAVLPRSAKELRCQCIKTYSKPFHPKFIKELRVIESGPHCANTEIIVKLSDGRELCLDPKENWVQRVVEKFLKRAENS
# G-protein coupled receptor 39: G-protein coupled receptor 39 (Mus musculus, UniProt Q5U431)
# Sequence of UniProt Q5U431 (whole entry, looked up): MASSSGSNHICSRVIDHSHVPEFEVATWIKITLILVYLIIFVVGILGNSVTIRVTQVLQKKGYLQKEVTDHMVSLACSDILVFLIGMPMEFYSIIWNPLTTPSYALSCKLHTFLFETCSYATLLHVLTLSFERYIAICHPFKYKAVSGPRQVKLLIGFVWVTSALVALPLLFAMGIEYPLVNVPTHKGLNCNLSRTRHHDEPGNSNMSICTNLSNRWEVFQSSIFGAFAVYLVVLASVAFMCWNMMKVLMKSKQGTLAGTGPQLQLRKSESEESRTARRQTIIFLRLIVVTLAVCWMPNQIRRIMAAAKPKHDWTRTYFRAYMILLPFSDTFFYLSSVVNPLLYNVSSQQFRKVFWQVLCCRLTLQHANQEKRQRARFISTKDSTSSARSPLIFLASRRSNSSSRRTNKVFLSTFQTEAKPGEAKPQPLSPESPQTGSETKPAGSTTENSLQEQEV
# NPBWR1: Neuropeptides B/W receptor type 1 (NPBWR1, Homo sapiens, UniProt P48145)
# Sequence of UniProt P48145 (whole entry, looked up): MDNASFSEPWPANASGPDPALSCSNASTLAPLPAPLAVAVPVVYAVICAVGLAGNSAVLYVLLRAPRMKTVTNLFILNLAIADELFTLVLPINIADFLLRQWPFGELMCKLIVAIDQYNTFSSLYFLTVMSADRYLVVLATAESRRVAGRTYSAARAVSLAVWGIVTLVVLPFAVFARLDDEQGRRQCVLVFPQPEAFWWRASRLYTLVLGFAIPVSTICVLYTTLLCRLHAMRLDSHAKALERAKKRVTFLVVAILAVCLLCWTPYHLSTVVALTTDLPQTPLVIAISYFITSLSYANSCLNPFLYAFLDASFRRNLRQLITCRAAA
# Sequence of UniProt P48061 (whole entry, looked up): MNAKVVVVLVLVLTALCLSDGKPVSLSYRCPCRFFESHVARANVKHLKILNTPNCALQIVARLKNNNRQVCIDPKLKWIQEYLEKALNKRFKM
# Sequence of UniProt P08575 (whole entry, looked up): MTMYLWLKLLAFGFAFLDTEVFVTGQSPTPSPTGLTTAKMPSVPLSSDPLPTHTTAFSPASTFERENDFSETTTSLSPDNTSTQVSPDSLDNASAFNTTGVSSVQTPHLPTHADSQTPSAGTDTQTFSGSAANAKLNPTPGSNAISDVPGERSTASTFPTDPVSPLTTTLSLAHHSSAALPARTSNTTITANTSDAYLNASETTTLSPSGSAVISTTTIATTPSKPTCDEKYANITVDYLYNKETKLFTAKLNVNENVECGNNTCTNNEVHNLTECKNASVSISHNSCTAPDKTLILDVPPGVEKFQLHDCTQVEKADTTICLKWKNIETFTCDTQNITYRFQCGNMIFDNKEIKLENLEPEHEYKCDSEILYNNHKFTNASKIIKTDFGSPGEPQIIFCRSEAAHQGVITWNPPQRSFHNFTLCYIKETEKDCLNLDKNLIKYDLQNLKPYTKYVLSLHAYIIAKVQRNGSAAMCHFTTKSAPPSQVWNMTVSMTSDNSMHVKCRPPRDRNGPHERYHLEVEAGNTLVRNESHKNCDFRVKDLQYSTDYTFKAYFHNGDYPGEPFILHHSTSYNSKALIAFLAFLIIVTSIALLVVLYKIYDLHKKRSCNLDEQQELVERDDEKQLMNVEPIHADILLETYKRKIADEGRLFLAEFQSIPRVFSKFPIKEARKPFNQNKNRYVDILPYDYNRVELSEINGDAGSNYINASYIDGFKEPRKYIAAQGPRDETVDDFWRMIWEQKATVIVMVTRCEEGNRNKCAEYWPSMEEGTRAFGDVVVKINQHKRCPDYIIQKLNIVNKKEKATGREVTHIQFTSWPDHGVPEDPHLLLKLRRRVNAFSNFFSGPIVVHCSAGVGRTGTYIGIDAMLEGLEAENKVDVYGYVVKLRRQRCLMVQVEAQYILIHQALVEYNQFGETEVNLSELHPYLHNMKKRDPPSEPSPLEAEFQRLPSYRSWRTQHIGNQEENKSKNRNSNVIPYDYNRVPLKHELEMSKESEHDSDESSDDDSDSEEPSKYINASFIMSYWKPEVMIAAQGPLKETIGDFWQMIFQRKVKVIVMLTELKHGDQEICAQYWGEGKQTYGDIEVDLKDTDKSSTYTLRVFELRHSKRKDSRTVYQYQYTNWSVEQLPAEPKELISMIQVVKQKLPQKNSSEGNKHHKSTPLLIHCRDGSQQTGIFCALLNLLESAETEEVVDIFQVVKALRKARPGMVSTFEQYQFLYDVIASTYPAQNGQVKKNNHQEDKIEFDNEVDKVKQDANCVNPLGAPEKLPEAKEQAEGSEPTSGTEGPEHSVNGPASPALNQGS
# Sequence of UniProt Q92633 (whole entry, unmodified, looked up): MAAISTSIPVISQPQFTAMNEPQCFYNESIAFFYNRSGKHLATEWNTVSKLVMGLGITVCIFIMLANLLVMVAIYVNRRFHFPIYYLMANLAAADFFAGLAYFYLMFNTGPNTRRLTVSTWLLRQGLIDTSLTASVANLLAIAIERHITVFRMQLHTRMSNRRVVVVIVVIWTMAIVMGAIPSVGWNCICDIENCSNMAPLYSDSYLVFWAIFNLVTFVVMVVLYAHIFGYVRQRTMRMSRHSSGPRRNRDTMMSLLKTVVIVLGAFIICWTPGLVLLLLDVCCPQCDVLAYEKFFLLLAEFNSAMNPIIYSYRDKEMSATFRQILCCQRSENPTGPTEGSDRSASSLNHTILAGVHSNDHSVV
# Sequence of UniProt Q92847 (whole entry, looked up): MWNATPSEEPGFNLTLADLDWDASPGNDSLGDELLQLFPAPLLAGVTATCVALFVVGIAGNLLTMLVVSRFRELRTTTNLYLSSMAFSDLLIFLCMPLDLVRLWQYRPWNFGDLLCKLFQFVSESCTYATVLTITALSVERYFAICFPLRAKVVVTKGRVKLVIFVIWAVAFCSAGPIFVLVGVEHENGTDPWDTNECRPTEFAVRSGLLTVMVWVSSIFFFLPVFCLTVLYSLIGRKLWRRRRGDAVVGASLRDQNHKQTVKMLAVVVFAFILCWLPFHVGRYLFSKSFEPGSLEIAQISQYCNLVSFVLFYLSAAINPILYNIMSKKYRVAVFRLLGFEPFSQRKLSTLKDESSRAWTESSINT
# Sequence of UniProt Q8VGS3 (whole entry, looked up): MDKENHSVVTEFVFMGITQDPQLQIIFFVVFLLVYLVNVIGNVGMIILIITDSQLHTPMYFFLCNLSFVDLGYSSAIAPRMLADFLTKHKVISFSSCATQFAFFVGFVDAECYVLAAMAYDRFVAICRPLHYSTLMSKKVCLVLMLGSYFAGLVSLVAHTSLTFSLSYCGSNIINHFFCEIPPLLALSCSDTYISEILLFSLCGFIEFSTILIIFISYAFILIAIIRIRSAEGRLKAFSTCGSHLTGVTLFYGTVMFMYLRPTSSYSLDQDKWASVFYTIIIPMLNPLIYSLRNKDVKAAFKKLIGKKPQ
# Sequence of UniProt P0DMS8 (whole entry, unmodified, looked up): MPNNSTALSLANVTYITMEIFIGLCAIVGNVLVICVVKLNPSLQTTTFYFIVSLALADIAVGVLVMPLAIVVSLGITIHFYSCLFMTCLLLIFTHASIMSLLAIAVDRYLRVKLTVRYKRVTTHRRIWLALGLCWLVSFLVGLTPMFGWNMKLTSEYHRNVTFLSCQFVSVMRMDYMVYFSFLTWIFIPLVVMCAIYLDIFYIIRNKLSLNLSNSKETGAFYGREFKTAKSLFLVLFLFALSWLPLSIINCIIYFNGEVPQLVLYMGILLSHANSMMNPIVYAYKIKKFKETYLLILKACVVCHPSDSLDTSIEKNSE
Structure (SMILES),target,test,system,conditions,EC50 [µM]
CC(CCC(=O)O)C1CCC2C3CCC4CC(OS(=O)(=O)O)CCC4(C)C3CC(O)C12C (stereo not shown),GPBAR1,agonist,,,290 ± 85.5
O=C(NC[C@@H](Cc1ccc(F)cc1)N1CCC(O)(C(F)(F)F)CC1)C1(c2ccc(Cl)cc2)CCCC1,"Transient receptor potential cation channel subfamily A member 1 (TRPA1, Homo sapiens, UniProt O75762, I906A)",,,,0.049
O=C(COc1cccc(Cl)c1Cl)Nc1cc(C2CC2)nn1C1CCOCC1,Kir3.1/Kir3.2,"activator, thallium flux",HEK293,,0.245
CC(=O)N[C@@H]1[C@@H](O[C@@H]2O[C@H](C(=O)O)[C@@H](OS(=O)(=O)O)[C@H](OS(=O)(=O)O)[C@H]2OS(=O)(=O)O)[C@H](OS(=O)(=O)O)[C@@H](COS(=O)(=O)O)O[C@H]1N=[N+]=[N-],CXCL8,fluorescence polarization competition,,"CXCL8 800 nM, 100% DW, with: TAMRA-labelled probe",133 ± 16.1
COc1ccc(C(=O)c2c(C(=O)NCCCN(C)C)oc3ccc(Cl)cc3c2=O)cc1OC,"Growth hormone secretagogue receptor type 1 (GHSR, Homo sapiens, UniProt Q92847)","Gαi1 dissociation, agonist, TRUPATH BRET",HEK293T,,1.58
Cc1cc(NC(=O)COc2ccc(Cl)cc2Cl)n(CC(F)(F)F)n1,Kir3.1/Kir3.2,"activator, thallium flux",HEK293,,0.22
CC(=O)N[C@@H]1[C@@H](O[C@@H]2O[C@H](C(=O)O)[C@@H](O[C@@H]3O[C@H](COS(=O)(=O)O)[C@@H](OS(=O)(=O)O)[C@H](O[C@@H]4O[C@H](C(=O)O)[C@@H](OS(=O)(=O)O)[C@H](OS(=O)(=O)O)[C@H]4OS(=O)(=O)O)[C@H]3NC(C)=O)[C@H](OS(=O)(=O)O)[C@H]2OS(=O)(=O)O)[C@H](OS(=O)(=O)O)[C@@H](COS(=O)(=O)O)O[C@H]1N=[N+]=[N-],"Stromal cell-derived factor 1 (CXCL12, Homo sapiens, UniProt P48061)",fluorescence polarization competition,,"CXCL12 388 nM, 200% DW, with: TAMRA-labelled probe",5 ± 0.7
CCN(CC)C(CO)c1cccc2c(C)c(C)oc12 (stereo not shown),"Lysophosphatidic acid receptor 1 (LPAR1, Homo sapiens, UniProt Q92633, W210A)","Gi activation, agonist, NanoBiT G-protein dissociation",HEK293T,W210A mutant,0.0468
O=C1C2=C(CCN(Cc3ccccc3)C2)N2CCN=C2N1Cc1ccc(C(F)(F)F)cc1,"ATP-dependent Clp protease proteolytic subunit (clpP, Staphylococcus aureus, UniProt Q2G036)",activator,,,1.4
CC1CCc2nccnc21 (stereo not shown),"uncharacterized protein (Puma concolor, UniProt A0A6P6H1F7)","cAMP, agonist",HEK293 transfected with uncharacterized protein,,1060 ± 420
CC(CCC(=O)NCCS(=O)(=O)O)C1CCC2C3C(O)CC4CC(O)CCC4(C)C3CC(O)C12C (stereo not shown),GPBAR1,agonist,,,15.8 ± 5.4
O=C(Cc1ccc(OCc2ccccc2)cc1)NC1(C(=O)O)CCN(C(=O)c2ccc(-c3cccc(Cl)c3)cc2)CC1,"Sphingosine 1-phosphate receptor 3 (S1PR3, Homo sapiens, UniProt Q99500)","cAMP, agonist, luciferase",,,> 10
CCc1cc(O)cc2c(/C=N/NC(=N)NCCc3ccc(Cl)cc3)c[nH]c12,"Relaxin-3 receptor 2 (RXFP4, Homo sapiens, UniProt Q8TDU9, T295A)",agonist,,,0.00708
CC(CCC(=O)NCC(=O)O)C1CCC2C3CCC4CC(O)CCC4(C)C3CC(O)C12C (stereo not shown),G-protein coupled receptor 39,"calcium signal, agonist, fluorescence",,,> 200
CC(=O)N[C@@H]1[C@@H](O[C@@H]2O[C@H](C(=O)O)[C@@H](O[C@@H]3O[C@H](CO)[C@@H](O)[C@H](O[C@@H]4O[C@H](C(=O)O)[C@@H](OS(=O)(=O)O)[C@H](OS(=O)(=O)O)[C@H]4OS(=O)(=O)O)[C@H]3NC(C)=O)[C@H](OS(=O)(=O)O)[C@H]2OS(=O)(=O)O)[C@H](O)[C@@H](CO)O[C@H]1N=[N+]=[N-],CXCL8,"probe displacement, FP competition",,"protein 800 nM, with: TAMRA-labelled sHA tetramer probe",140 ± 37.3
CC1=C(C(=O)OC2CCCC2)C(c2ccccc2C)C2=C(CC(C)(C)CC2=O)N1 (stereo not shown),"ADGRG1 (Homo sapiens, UniProt Q9Y653)","G13 activation, agonist, GTPγS binding, reconstitution",,,2.15 ± 0.033
CC(C)C[C@H](NC(=O)CNC(=O)[C@H](C)NC(=O)[C@H](C)NC(=O)[C@H](CCCNC(=N)N)NC(=O)CNC(=O)CCCCNC(=O)CCCCNC(=O)CCCCNC(=O)[C@H](CCCCN)NC(=O)[C@H](Cc1ccc(O)cc1)NC(=O)[C@@H](N)Cc1c[nH]c2ccccc12)C(=O)N[C@H](C(N)=O)C(C)(C)C,NPBWR1,"calcium signal, agonist",,,0.479
CC(CCC(=O)NCCS(=O)(=O)O)C1CCC2C3CCC4CC(OS(=O)(=O)O)CCC4(C)C3CCC12C (stereo not shown),G-protein coupled receptor 39,"calcium signal, agonist, fluorescence",,,71.6
CC(C)C[C@H](NC(=O)CNC(=O)[C@H](C)NC(=O)[C@H](C)NC(=O)[C@H](C)NC(=O)CNC(=O)CCCCNC(=O)CCCCNC(=O)CCCCNC(=O)[C@H](CCCCN)NC(=O)[C@H](Cc1ccc(O)cc1)NC(=O)[C@@H](N)Cc1c[nH]c2ccccc12)C(=O)N[C@@H](CC(C)C)C(=O)N[C@@H](CO)C(N)=O,NPBWR1,"calcium signal, agonist",,,> 10
O=C(COc1cccc(Cl)c1Cl)Nc1cc(C2CC2)nn1CC(F)(F)F,Kir3.1/Kir3.2,"activator, thallium flux",HEK293,,> 10
Nc1ncnc2c1ncn2[C@@H]1O[C@H](COP(=O)(O)OP(=O)(O)OC[C@H]2OC(O)[C@H](O)[C@@H]2O)[C@@H](O)[C@H]1OP(=O)(O)O (stereo partly shown),"TRPM2 (Nematostella vectensis, UniProt A7T1N0, S478C)",agonist,,,0.091 ± 0.003
CC(CCC(=O)O)C1CCC2C3C(O)CC4CC(OS(=O)(=O)O)CCC4(C)C3CCC12C (stereo not shown),G-protein coupled receptor 39,"calcium signal, agonist, fluorescence",,,> 200
CC1=NC(C)C(C)S1 (stereo not shown),"Olfactory receptor 5AR1 (Or5ar1, Mus musculus, UniProt Q8VGS3)","agonist, cAMP luminescence",HEK293 transfected,,51.7
CC(C)C[C@H](NC(=O)CNC(=O)[C@H](C)NC(=O)[C@H](C)NC(=O)[C@H](CCCNC(=N)N)NC(=O)CNC(=O)CCCCNC(=O)CCCCNC(=O)CCCCNC(=O)[C@H](CCCCN)NC(=O)[C@H](C)NC(=O)[C@@H](N)Cc1c[nH]c2ccccc12)C(=O)N[C@@H](CC(C)C)C(=O)N[C@@H](CO)C(N)=O,NPBWR1,"calcium signal, agonist",,,> 10
CNc1ncnc2c1ncn2C1OC(CO)C(O)C1O (stereo not shown),"Adenosine receptor A3 (ADORA3, Homo sapiens, UniProt P0DMS8, V169T)","G protein activation, agonist",,,0.011
CC(CCC(=O)NCCS(=O)(=O)O)C1CCC2C3CCC4CC(OS(=O)(=O)O)CCC4(C)C3CC(O)C12C (stereo not shown),G-protein coupled receptor 39,"calcium signal, agonist, fluorescence",,,> 200
CC(=O)N[C@@H]1[C@@H](O[C@@H]2O[C@H](C(=O)O)[C@@H](O[C@@H]3O[C@H](CO)[C@@H](OS(=O)(=O)O)[C@H](O[C@@H]4O[C@H](C(=O)O)[C@@H](OS(=O)(=O)O)[C@H](OS(=O)(=O)O)[C@H]4OS(=O)(=O)O)[C@H]3NC(C)=O)[C@H](OS(=O)(=O)O)[C@H]2OS(=O)(=O)O)[C@H](OS(=O)(=O)O)[C@@H](CO)O[C@H]1N=[N+]=[N-],CXCL8,"probe displacement, FP competition",,"protein 800 nM, with: TAMRA-labelled sHA tetramer probe",27.1 ± 2.5
CC(CCC(=O)NCCS(=O)(=O)O)C1CCC2C3CCC4CC(O)CCC4(C)C3CC(O)C12C (stereo not shown),GPBAR1,agonist,,,1.9 ± 1.3
CC(C)C[C@H](NC(=O)[C@@H](CC(C)C)NC(=O)CNC(=O)[C@H](C)NC(=O)[C@H](C)NC(=O)[C@H](CCCNC(=N)N)NC(=O)CNC(=O)CCCCNC(=O)CCCCNC(=O)CCCCNC(=O)[C@H](CCCCN)NC(=O)[C@H](Cc1ccc(O)cc1)NC(=O)[C@@H](N)Cc1c[nH]c2ccccc12)C(N)=O,NPBWR1,"calcium signal, agonist",,,0.53
CC(CCC(=O)NCCS(=O)(=O)O)C1CCC2C3C(O)CC4CC(OS(=O)(=O)O)CCC4(C)C3CCC12C (stereo not shown),G-protein coupled receptor 39,"calcium signal, agonist, fluorescence",,,> 200
Cn1c(=O)n(C2CCC(=O)NC2=O)c2ccc(C3CCN(CC(=O)Nc4cccc(CS(=O)(=O)N5CC[C@H](Nc6cccc(-c7sc(C(=O)O)c(OCC(=O)O)c7Cl)c6)CC5(C)C)c4)CC3)cc21 (stereo partly shown),"Receptor-type tyrosine-protein phosphatase C (PTPRC, Homo sapiens, UniProt P08575)",phosphatase activity,,with: DiFMUP substrate,> 10

# For quick reference, copied from above:
Structure (SMILES),target,test,system,conditions,EC50 [µM]
CC(=O)N[C@@H]1[C@@H](O[C@@H]2O[C@H](C(=O)O)[C@@H](OS(=O)(=O)O)[C@H](OS(=O)(=O)O)[C@H]2OS(=O)(=O)O)[C@H](OS(=O)(=O)O)[C@@H](COS(=O)(=O)O)O[C@H]1N=[N+]=[N-],CXCL8,fluorescence polarization competition,,"CXCL8 800 nM, 100% DW, with: TAMRA-labelled probe",133 ± 16.1
COc1ccc(C(=O)c2c(C(=O)NCCCN(C)C)oc3ccc(Cl)cc3c2=O)cc1OC,"Growth hormone secretagogue receptor type 1 (GHSR, Homo sapiens, UniProt Q92847)","Gαi1 dissociation, agonist, TRUPATH BRET",HEK293T,,1.58
Cc1cc(NC(=O)COc2ccc(Cl)cc2Cl)n(CC(F)(F)F)n1,Kir3.1/Kir3.2,"activator, thallium flux",HEK293,,0.22
CC(=O)N[C@@H]1[C@@H](O[C@@H]2O[C@H](C(=O)O)[C@@H](O[C@@H]3O[C@H](COS(=O)(=O)O)[C@@H](OS(=O)(=O)O)[C@H](O[C@@H]4O[C@H](C(=O)O)[C@@H](OS(=O)(=O)O)[C@H](OS(=O)(=O)O)[C@H]4OS(=O)(=O)O)[C@H]3NC(C)=O)[C@H](OS(=O)(=O)O)[C@H]2OS(=O)(=O)O)[C@H](OS(=O)(=O)O)[C@@H](COS(=O)(=O)O)O[C@H]1N=[N+]=[N-],"Stromal cell-derived factor 1 (CXCL12, Homo sapiens, UniProt P48061)",fluorescence polarization competition,,"CXCL12 388 nM, 200% DW, with: TAMRA-labelled probe",5 ± 0.7
